Measured values pooled from the literature.
Each line is one published result; not all experiments were run side by side. ± gives the spread as reported.

C[C@H]1C[C@@H](Oc2cccc(F)n2)CCN1Cc1cnc(N[11C](C)=O)s1  radioligand stability (rat brain homogenate; at least 30 min, room temperature): 98.4%
CC(=O)c1cnc(N)nc1N1CC[C@H]1c1nn2ccc(Cl)c2c(=O)n1-c1ccccc1  plasma concentration at ED50 (female Wistar rat; oral, 2 h, anti-IgD B cell activation): 48 to 134 nM
CCNC(=O)NC1CC=C(c2cc3c(Nc4cc5ncsc5cc4F)ncnc3s2)CC1 (racemic)  intrinsic clearance (human liver microsomes; 1 µM): < 12 mL/min/g protein
O=C(O)C1CN(Cc2ccc(-c3noc(-c4ccc(OCC[18F])c(C(F)(F)F)c4)n3)cc2)C1  tracer uptake (rat, brain; intravenous, 1 h): 0.017 %ID/g
Cn1cc2cc1C(=O)NCCCC(=O)Nc1cn(C)c(n1)C(=O)Nc1cn(C)c(n1)C(=O)Nc1cc(n(C)c1)C(=O)Nc1cc(n(C)c1)C(=O)NC[C@H](N)CC(=O)Nc1cc(n(C)c1)C(=O)Nc1cc(n(C)c1)C(=O)Nc1cc(n(C)c1)C(=O)N2  injected dose in plasma (C57BL/6 mice, plasma; intraperitoneal, 120 nmol/animal, 1.5 h): 6.5%
Cc1[nH]nc2c1N=C(c1ccccc1Cl)c1cnc(N3CCOCC3)cc1N2  excretion in feces and urine (human, feces and urine; oral, 10 mg; relative to: dose): 68.9%
Cn1c(=O)oc2ccc(-c3ccc(CC(C#N)NC(=O)C4CNCCCO4)c(F)c3)cc21 (stereo not shown)  subjects with adverse event (item: skin exfoliation; human; 80 mg, treatment-related, single dose, fasted): 0%
CC(C)C[C@@H](NC(=O)[C@H](NC(=O)[C@H]1CCCN1)[C@H](C)O)C(=O)N[C@H](Cc1c[nH]cn1)C(=O)N[C@@H](C(=O)N[C@H](Cc1c[nH]cn1)C(=O)N[C@H](CC(N)=O)C(=O)N[C@H](CCCNC(=N)N)C(=O)N[C@H](CCCNC(=N)N)C(=O)N[C@H](CCCNC(=N)N)C(=O)N[C@H](CCCNC(=N)N)C(=O)N[C@H](CCCNC(=N)N)C(N)=O)[C@H](C)O  AUC(0-inf) (Beagle dog, CSF; oral, 20 mg/kg): 242 ± 47 ng·h/mL
Cc1ccc(OCC(=O)O)cc1  Cmax (male Sprague-Dawley rat, plasma; oral, 30 mg/kg of parent drug, day 1, 90-day study, metabolite): 4400 ± 921 ng/mL
COc1cc(NC(C)=O)c2c(c1O)-c1c(OC)c(OC)cc3c1C(C2)N(C)CC3 (stereo not shown)  remaining compound (rat liver homogenate; 50 µg/mL, 4 h, room temperature, short-term storage): 92.4 ± 0.2%
CC[C@H](C)[C@H](NC(=O)[C@H](CCCCN)NC(=O)[C@H](CS)NC(=O)[C@H](C)NC(=O)[C@H](CC(N)=O)NC(=O)[C@H](CCCNC(=N)N)NC(=O)[C@H](CCCNC(=N)N)NC(=O)[C@H](CC(N)=O)NC(=O)[C@H](CCCNC(=N)N)NC(=O)[C@H](CCCNC(=N)N)NC(=O)[C@H](C)NC(=O)[C@H](CS)NC(=O)[C@H](CO)NC(=O)[C@@H](NC(=O)[C@@H](NC(=O)[C@H](CS)NC(=O)[C@H](CCCCN)NC(=O)[C@@H](N)CCCNC(=N)N)C(C)C)[C@@H](C)CC)C(=O)N[C@@H](CC(C)C)C(=O)N[C@@H](CS)C(=O)N[C@@H](CC(N)=O)C(=O)O  single disulfide form (LC-MS; PBS; 0.1 mg/mL): 19%
Oc1ccc2ccccc2c1/N=N/c1ccccc1  freeze-thaw stability deviation (rat whole blood; 16.0 µg/L, freeze-thaw cycle 1): -1%
C#CCOc1ccc(/C=C2\SC(=O)N(CC(=O)NCc3ccccc3)C2=O)cc1  Kirkwood-Buff integral G1,3 (inverse Kirkwood-Buff integrals; binary solvent mixture; 298.15 K, mole fraction x1 0.55): -261 cm³/mol
CSCOC1C(=O)C2(C)C(OCSC)CC3OCC3(OC(C)=O)C2C(OC(=O)c2ccccc2)C2(O)CC(OC(=O)C(O)C(C=C(C)C)NC(=O)OC(C)(C)C)C(C)=C1C2(C)C (stereo not shown)  clearance (female Sprague-Dawley rat, plasma; intravenous, 2 mg/kg): 135 mL/min/kg
O=C([O-])CN1CCN(CC(=O)[O-])CCN(CC(=O)NCC2CCC(C(=O)NC(Cc3ccc4ccccc4c3)C(=O)NCCCCC(NC(=O)NC(CCC(=O)O)C(=O)O)C(=O)O)CC2)CCN(CC(=O)[O-])CC1.[44Sc+3] (stereo not shown)  intact tracer (0.9 % NaCl; 24 h, 37 °C): > 95%
CCn1cc(/C=C/c2sc3ccccc3[n+]2CC)c2ccccc21  molar absorptivity (MeOH): 57700 M⁻¹ cm⁻¹
N=C(N)NCCC[C@@H]1NC(=O)[C@H](Cc2c[nH]c3ccccc23)NC(=O)[C@@H](CC2CCCCC2)NC(=O)[C@@H]2CCCN2C(=O)[C@@H](NC(=O)CCc2ccccc2)CCCNC1=O  beta rate constant (two-compartment model; C57BL/6J mice, plasma; subcutaneous, 1 mg/kg): 0.03 min⁻¹
C[Si](C)(C)C[C@H](CN)CC(=O)O  performance time (neuromuscular coordination; Wistar rat male; oral, 300 mg/kg, 2 h): 135 s
CC(C)CCCC(C)CCCC(C)CCO[C@@H]1O[C@H](CO)[C@@H](O[C@H]2O[C@H](CO)[C@@H](O)[C@H](O)[C@H]2O)[C@H](O)[C@H]1O (stereo partly shown)  surface tension at induction time (dynamic surface tension; 0.0145 mmol/L): 63.2 mN/m
CC(C)C(=O)N1CCC=C(c2cc3c(Nc4cc5ncsc5cc4F)ncnc3s2)C1  half-life (metabolic stability; human, liver microsomes): > 2 h
CC(=O)[CH](C(C)=O)[Pt-2]1([S+](C)C)[O]C(C)=CC(C)=[O+]1 (stereo not shown)  remaining in circulation (item: platinum; rat, whole blood; iv, dose not given, 1 h): 40%
F[P-](F)(F)(F)(F)F.O=C(CCC(=O)[c-]1cccc1)NCCN(CC(=O)Nc1ccc(C#CCN(Cc2ccccn2)Cc2ccccn2)cc1)C(=O)CCc1cn(Cc2ccccc2)nn1.[C-]#[O+].[C-]#[O+].[C-]#[O+].[C-]#[O+].[C-]#[O+].[C-]#[O+].[Mn+].[Re+]  maximum solubility (DMEM; 10 min, room temperature): 50 µg/mL
Nc1nc(-n2nnc3c2CCC2C(CO)C2CC3)nc2c1ncn2C1OC(CO)C(O)C1O (mixture of isomers)  second excitation maximum (methanol; red edge of spectrum): 329 nm
Cc1noc(C)c1Cn1cc(N2C(=O)CN(Cc3cccc(O[C@@H]4O[C@H](C(=O)O)[C@@H](O)[C@H](O)[C@H]4O)c3)C2=O)cn1  AUC(0-last) (rat Sprague-Dawley male, plasma; oral, 30 mg/kg of parent drug): 22900 ng·h/mL
CN1C(=O)[C@@H](Cc2ccc(O)cc2)NC(=O)CNC(=O)[C@H](Cc2ccc3ccccc3c2)NC(=O)[C@H](CCCNC(=N)N)NC(=O)[C@H]1CCCNC(=O)c1ccc(CNC(=O)CN2CCN(CC(=O)O)CCN(CC(=O)O)CCN(CC(=O)O)CC2)cc1 [gallium-68 labelled]  tolerability (human patients; dose not given, vital signs and blood counts): not toxic
C=CCc1ccc(O)c(-c2cc(CC=C)ccc2OCCCCCCCCCC[P+](c2ccccc2)(c2ccccc2)c2ccccc2)c1  serum albumin (C57BL/6 mouse, non-tumour-bearing; dose not given, day 31): 2.7 ± 0.1 g/dL
C[Si]1(C[C@H](CN)CC(=O)O)CCCC1  performance time (neuromuscular coordination; Wistar rat male; oral, 30 mg/kg, 1 h): 180 s
Cc1ccc(-c2ccc(-c3cc4sccc4o3)cn2)nc1  fluorescence quantum yield (DMSO; together with: quinine bisulfate reference): 0.76
COc1cc2c(cc1OC)CN(CCCCn1ccc3cc(OCC[18F])ccc31)C2  uptake (ICR mice, male, stomach; intravenous, 2 min): 1.62 ± 0.54 %ID/organ
CC(=O)N[C@H](CC(=O)O)C(=O)N[C@H](Cc1c[nH]c2ccccc12)C(=O)N[C@H](Cc1ccccc1)C(=O)N[C@H](CCCCN)C(=O)N[C@H](C)C(=O)N[C@H](Cc1ccccc1)C(=O)N[C@H](Cc1ccc(O)cc1)C(=O)N[C@H](CC(=O)O)C(=O)N[C@H](CCCCN)C(=O)N[C@@H](C(=O)N[C@H](C)C(=O)N[C@H](CCC(=O)O)C(=O)N[C@H](CCCCN)C(=O)N[C@H](Cc1ccccc1)C(=O)N[C@H](CCCCN)C(=O)N[C@H](CCC(=O)O)C(=O)N[C@H](C)C(=O)N[C@H](Cc1ccccc1)C(N)=O)C(C)C  AUC(0-t) (statin-treated high-risk CHD men, plasma; oral, 300 mg daily, day 1, 0 to 2 h, mean, undetectable set to 0): 4.56 ng·h/mL
O=C(O)C1OC(OC2C(COS(=O)(=O)O)OC(OC3C(C(=O)O)OC(OC4C(COS(=O)(=O)O)OC(OC5C(C(=O)O)OC(OC6C(COS(=O)(=O)O)OC(OC7C(C(=O)O)OC(OC8C(COS(=O)(=O)O)OC(OC9C(C(=O)O)OC(OC%10C(COS(=O)(=O)O)OC(OC%11C(C(=O)O)OC(Oc%12ccc([N+](=O)[O-])cc%12)C(O)C%11O)C(NS(=O)(=O)O)C%10O)C(OS(=O)(=O)O)C9O)C(NS(=O)(=O)O)C8O)C(OS(=O)(=O)O)C7O)C(NS(=O)(=O)O)C6O)C(OS(=O)(=O)O)C5O)C(NS(=O)(=O)O)C4O)C(OS(=O)(=O)O)C3O)C(NS(=O)(=O)O)C2OS(=O)(=O)O)C(O)C(O)C1OC1OC(COS(=O)(=O)O)C(O)C(O)C1NS(=O)(=O)O (stereo not shown)  thyroid/parathyroid to body weight ratio (rats; intravenous, 3600 µg/kg/day for 7 days, day 8): 0.0058 ± 0.0011
C=C(c1cc(F)c(C(=O)O)c(F)c1)c1cc2c(cc1C)C(C)(C)CCC2(C)C  LDL level (Sprague-Dawley rat, male, plasma; oral, 100 mg/kg, 6 h, sesame oil vehicle): 7 ± 1.5 mg/dL
CCC(C)N(C)C(=O)c1nc(-c2cccc(C(F)(F)[18F])c2)c2ccccc2n1 (stereo not shown)  radiochemical purity (0.1% BSA; 6 h, 37 °C): > 99%
NCC(=O)N1CCC[C@H]1C(=O)N1C[C@H](O)C[C@H]1C(=O)O  log β (25 °C, MAH complex, ionic strength 0.15, together with: Fe(III)): 22.5
O=C(NCCCN(CCCCN(CCCNC(=O)c1cccc(=O)n1[O-])C(=O)c1cccc(=O)n1[O-])C(=O)c1cccc(=O)n1[O-])c1cccc(=O)n1[O-].[89Zr+4]  intact complex (radio-TLC; PBS; 7 d, pH 7.4, 37 °C, together with: Mg^2+ 10-fold excess): 98.7 ± 1.8%
CCCC[C@H](NC(=O)CNC(=O)CNC(=O)CN1CCN(CC(=O)O)CCN(CC(=O)O)CCN(CC(=O)O)CC1)C(=O)N[C@H]1CC(=O)NCCCC[C@@H](C(N)=O)NC(=O)[C@H](Cc2c[nH]c3ccccc23)NC(=O)[C@H](CCCNC(=N)N)NC(=O)[C@@H](Cc2ccccc2)NC(=O)[C@H](Cc2c[nH]cn2)NC1=O [copper-64 labelled]  uptake ratio (female C57 mouse, B16/F1 melanoma; intravenous, 0.037 MBq, 0.5 h; relative to: tumour over stomach): 1.98
COc1cc(OC)cc(C2=C3C(C)=C(I)C(/C=C/c4c[nH]c5ccccc45)=[N+]3[B-](F)(F)n3c(/C=C/c4c[nH]c5ccccc45)c(I)c(C)c32)c1  absorption maximum (dichloromethane): 702 nm

For quick reference, copied from above:
C[Si](C)(C)C[C@H](CN)CC(=O)O  performance time (neuromuscular coordination; Wistar rat male; oral, 300 mg/kg, 2 h): 135 s
Cn1cc2cc1C(=O)NCCCC(=O)Nc1cn(C)c(n1)C(=O)Nc1cn(C)c(n1)C(=O)Nc1cc(n(C)c1)C(=O)Nc1cc(n(C)c1)C(=O)NC[C@H](N)CC(=O)Nc1cc(n(C)c1)C(=O)Nc1cc(n(C)c1)C(=O)Nc1cc(n(C)c1)C(=O)N2  injected dose in plasma (C57BL/6 mice, plasma; intraperitoneal, 120 nmol/animal, 1.5 h): 6.5%
